Results collected from several papers.
Parts stem from different laboratories: compare values within a part only. Values joined by “and” are separate records of one study, mostly repeats; a detail may differ.
Sequence of UniProt Q15418 (whole entry, looked up): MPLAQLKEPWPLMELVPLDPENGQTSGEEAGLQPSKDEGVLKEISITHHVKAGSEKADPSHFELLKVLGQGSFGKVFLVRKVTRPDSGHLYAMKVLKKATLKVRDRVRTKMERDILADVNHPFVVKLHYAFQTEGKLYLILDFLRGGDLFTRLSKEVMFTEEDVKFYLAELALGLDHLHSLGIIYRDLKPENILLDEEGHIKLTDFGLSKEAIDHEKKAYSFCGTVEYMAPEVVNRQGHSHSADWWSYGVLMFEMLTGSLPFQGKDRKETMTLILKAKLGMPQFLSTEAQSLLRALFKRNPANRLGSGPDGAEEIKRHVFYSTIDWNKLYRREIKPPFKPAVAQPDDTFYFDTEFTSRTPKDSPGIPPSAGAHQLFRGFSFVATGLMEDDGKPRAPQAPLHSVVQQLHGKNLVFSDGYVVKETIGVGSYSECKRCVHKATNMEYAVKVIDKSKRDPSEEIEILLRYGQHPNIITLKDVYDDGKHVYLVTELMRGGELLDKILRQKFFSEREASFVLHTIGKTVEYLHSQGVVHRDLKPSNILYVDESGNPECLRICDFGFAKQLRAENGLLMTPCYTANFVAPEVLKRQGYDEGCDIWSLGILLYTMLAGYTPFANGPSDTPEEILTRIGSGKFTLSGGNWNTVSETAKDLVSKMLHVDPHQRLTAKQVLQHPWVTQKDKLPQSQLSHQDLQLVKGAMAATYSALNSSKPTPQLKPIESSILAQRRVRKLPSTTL
Sequence of UniProt P10721 (whole entry, unmodified, looked up): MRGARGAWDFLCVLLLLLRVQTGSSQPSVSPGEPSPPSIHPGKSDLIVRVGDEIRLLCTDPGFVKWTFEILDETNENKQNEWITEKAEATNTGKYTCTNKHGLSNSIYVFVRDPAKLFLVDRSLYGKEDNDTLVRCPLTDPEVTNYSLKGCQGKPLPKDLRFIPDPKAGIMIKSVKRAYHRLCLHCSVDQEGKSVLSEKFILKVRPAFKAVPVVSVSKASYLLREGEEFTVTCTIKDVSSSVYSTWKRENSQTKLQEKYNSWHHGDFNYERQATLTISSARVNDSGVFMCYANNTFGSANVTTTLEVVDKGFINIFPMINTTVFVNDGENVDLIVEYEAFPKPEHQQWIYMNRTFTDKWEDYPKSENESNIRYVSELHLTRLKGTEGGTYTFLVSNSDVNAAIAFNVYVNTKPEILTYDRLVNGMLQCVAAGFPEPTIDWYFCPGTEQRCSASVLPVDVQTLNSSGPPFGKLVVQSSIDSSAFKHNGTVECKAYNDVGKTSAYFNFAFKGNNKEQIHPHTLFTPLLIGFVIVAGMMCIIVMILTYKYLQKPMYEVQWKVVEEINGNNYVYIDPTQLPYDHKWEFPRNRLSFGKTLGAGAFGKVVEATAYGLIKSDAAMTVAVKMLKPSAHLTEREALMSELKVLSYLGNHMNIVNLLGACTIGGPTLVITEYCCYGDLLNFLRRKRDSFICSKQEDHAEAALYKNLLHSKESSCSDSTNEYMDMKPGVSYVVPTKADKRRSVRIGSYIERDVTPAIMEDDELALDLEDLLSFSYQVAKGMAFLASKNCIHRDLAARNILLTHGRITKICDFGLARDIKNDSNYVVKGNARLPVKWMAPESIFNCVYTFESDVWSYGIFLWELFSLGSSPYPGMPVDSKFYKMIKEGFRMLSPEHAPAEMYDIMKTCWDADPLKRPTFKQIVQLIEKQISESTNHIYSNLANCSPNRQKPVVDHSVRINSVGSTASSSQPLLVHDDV
Sequence of UniProt P51957 (whole entry, looked up): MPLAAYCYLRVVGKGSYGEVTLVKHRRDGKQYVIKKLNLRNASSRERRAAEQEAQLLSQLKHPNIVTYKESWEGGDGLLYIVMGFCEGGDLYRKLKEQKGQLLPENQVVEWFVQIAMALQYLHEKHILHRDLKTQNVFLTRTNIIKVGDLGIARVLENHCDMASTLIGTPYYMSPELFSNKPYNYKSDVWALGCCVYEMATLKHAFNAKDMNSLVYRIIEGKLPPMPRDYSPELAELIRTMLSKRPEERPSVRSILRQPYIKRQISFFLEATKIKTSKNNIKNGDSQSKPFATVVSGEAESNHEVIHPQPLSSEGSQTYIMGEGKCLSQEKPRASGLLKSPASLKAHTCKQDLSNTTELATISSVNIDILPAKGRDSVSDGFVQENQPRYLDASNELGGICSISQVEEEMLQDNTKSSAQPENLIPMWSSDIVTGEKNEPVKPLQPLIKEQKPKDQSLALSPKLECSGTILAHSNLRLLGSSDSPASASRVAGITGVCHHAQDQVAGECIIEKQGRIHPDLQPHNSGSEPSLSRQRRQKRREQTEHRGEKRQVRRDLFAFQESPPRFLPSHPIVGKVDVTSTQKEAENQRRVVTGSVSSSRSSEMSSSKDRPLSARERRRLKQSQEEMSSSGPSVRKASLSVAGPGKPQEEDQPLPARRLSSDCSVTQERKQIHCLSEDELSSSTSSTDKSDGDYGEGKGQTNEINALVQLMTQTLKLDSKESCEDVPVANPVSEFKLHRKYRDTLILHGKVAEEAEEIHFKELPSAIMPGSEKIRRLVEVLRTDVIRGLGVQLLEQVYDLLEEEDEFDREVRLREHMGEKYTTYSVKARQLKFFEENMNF
Sequence of UniProt P06241 (whole entry, looked up): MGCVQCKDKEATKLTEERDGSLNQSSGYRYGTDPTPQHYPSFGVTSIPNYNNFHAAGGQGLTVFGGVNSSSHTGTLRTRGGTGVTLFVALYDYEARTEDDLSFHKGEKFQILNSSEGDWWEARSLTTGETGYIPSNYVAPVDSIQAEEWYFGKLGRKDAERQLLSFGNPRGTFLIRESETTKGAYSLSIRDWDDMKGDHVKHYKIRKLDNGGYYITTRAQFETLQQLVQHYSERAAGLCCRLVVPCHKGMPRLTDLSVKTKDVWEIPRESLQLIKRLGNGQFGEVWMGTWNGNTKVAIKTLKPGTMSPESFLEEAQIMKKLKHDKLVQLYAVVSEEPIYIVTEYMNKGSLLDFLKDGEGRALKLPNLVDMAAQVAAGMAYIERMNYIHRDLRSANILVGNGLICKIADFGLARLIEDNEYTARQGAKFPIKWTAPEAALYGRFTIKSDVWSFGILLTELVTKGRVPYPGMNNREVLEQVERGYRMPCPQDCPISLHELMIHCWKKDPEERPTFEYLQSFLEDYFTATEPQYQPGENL
Sequence of UniProt O14730 (whole entry, looked up): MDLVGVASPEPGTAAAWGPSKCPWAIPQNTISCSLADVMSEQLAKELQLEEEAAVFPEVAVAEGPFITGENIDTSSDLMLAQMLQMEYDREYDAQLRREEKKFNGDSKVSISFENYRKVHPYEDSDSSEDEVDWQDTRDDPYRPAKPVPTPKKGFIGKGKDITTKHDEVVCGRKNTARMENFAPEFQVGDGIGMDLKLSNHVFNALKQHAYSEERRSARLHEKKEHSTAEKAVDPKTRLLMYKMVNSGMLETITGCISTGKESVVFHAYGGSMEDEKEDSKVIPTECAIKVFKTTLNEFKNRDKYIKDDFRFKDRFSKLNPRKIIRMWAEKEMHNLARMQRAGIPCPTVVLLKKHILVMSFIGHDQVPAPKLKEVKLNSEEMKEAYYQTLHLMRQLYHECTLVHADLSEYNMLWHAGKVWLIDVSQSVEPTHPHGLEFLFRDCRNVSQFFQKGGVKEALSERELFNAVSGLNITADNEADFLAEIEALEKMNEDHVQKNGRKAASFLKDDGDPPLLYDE
Sequence of UniProt Q13237 (whole entry, looked up): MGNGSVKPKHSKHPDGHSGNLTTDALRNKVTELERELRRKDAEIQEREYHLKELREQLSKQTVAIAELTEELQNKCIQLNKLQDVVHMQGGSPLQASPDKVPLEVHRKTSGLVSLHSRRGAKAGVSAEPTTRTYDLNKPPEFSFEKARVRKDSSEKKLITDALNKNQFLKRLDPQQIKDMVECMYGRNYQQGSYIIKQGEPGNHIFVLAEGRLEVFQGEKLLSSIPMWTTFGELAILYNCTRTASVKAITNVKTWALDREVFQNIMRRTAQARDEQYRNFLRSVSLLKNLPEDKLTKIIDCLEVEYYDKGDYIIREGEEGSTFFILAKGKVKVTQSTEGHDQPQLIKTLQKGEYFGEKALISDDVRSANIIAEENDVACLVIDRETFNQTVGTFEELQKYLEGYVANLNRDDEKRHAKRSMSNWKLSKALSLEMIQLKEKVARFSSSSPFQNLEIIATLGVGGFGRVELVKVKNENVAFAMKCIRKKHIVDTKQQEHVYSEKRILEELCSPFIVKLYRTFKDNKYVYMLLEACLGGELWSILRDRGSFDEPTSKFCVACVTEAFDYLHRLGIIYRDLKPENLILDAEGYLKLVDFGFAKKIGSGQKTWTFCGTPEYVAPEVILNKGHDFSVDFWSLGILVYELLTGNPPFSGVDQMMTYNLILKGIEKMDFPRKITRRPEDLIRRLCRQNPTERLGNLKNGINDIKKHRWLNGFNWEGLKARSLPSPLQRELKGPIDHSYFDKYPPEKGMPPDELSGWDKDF

Block 1 — method: competition with immobilised ligand; concentration: 1 µM; quantity: remaining binding
SMILES: Cc1c(C(=O)O)cc(-c2ccc(C3CCNCC3)cc2)c2ccc(-c3ccc(C(F)(F)F)cc3)cc12
PTK6 (Homo sapiens, UniProt Q13882); binding: 100%
MAPK12 (Homo sapiens, UniProt P53778); binding: 85%
PRKG2 (Homo sapiens, UniProt Q13237); binding: 71%
MAP3K14 (Homo sapiens, UniProt Q99558); binding: 100%
Ribosomal protein S6 kinase alpha-1, N-terminal kinase domain (RPS6KA1, Homo sapiens, UniProt Q15418); binding: 100%
MAP3K12 (Homo sapiens, UniProt Q12852); binding: 100%
NTRK2 (Homo sapiens, UniProt Q16620); cell-free assay: 100%
TESK1 (Homo sapiens, UniProt Q15569); binding: 93%
SRMS (Homo sapiens, UniProt Q9H3Y6); cell-free assay: 100%
PKN1 (Homo sapiens, UniProt Q16512); binding: 100%
ROCK2 (Homo sapiens, UniProt O75116); binding: 89%
KIT (Homo sapiens, UniProt P10721, A829P); binding: 98%
CDK5 (Homo sapiens, UniProt Q00535); binding: 100%
EPHB1 (Homo sapiens, UniProt P54762); cell-free assay: 100%
PIK3C2B (Homo sapiens, UniProt O00750); cell-free assay: 100%
STK39 (Homo sapiens, UniProt Q9UEW8); binding: 100%
Ribosomal protein S6 kinase alpha-3, N-terminal kinase domain (RPS6KA3, Homo sapiens, UniProt P51812); binding: 100%
EGFR (Homo sapiens, UniProt P00533, G719S); cell-free assay: 94%
MAP2K7 (Homo sapiens, UniProt O14733); binding: 100%
Tyrosine-protein kinase ABL1, non-phosphorylated (ABL1, Homo sapiens, UniProt P00519, T315I); binding: 82%
CAMKK2 (Homo sapiens, UniProt Q96RR4); binding: 100%
NEK4 (Homo sapiens, UniProt P51957); binding: 100%
MATK (Homo sapiens, UniProt P42679); binding: 100%
CDK15 (Homo sapiens, UniProt Q96Q40); binding: 100%
Ribosomal protein S6 kinase alpha-1, C-terminal kinase domain (RPS6KA1, Homo sapiens, UniProt Q15418); binding: 100%

Block 2 — effect on: enzyme activity; action: inhibitor; concentration: 0.5 µM; reference: control; quantity: remaining activity
Target: Mitogen-activated protein kinase 10 (MAPK10, Homo sapiens, UniProt P53779)
Sequence of UniProt P53779 (whole entry, looked up): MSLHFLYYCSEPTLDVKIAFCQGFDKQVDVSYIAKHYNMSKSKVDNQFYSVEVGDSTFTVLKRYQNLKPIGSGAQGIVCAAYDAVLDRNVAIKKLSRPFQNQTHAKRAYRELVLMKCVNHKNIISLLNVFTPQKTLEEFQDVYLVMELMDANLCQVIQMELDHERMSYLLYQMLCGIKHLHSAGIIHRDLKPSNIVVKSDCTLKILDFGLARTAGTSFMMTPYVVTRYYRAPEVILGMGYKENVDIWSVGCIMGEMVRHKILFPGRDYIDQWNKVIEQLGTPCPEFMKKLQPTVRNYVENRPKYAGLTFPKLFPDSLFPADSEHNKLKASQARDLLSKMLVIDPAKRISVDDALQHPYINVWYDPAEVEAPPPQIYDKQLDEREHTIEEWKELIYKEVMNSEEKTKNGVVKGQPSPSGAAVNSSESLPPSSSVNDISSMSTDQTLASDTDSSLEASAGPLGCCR
Nc1cccc(-c2cc3c(Oc4cccc(O)c4)ncnc3[nH]2)c1: 89.4%
Cn1nc2c3c(cccc31)C(=O)c1ccccc1-2: 97.3%
N#Cc1c(NC(=O)c2cccc3ccccc23)sc2c1CCCC2: 112%
CCN(CC)CCNC(=O)c1c(C)[nH]c(/C=C2\C(=O)Nc3ccc(F)cc32)c1C: 99.5%
c1ccc(-c2[nH]ncc2-c2ccnc3ccccc23)nc1: 92.9%
COc1cc2c(cc1OC)-c1[nH]nc(Nc3cccc(F)c3)c1C2: 102%
O=C1c2ccccc2-c2n[nH]c3cccc1c23: 115%
O=c1cc(-c2cccc3c2Sc2ccccc2S3)oc(N2CCOCC2)c1: 93.6%
Cc1cc2ncc(-c3ccccc3)nc2cc1C: 103%
Ic1cccc(CSc2nnc(-c3ccncc3)o2)c1: 95.7%
C[C@@H]1CCN(C(=O)CC#N)C[C@@H]1N(C)c1ncnc2[nH]ccc12: 100%
O=C1C(Cl)=C(N2C(=O)CCC2=O)C(=O)c2ccccc21: 93.6%
O=C(Nc1cccc(Nc2nccc(Nc3cccc(C(F)(F)F)c3)n2)c1)C1CC1: 99%
CN([C@@H](Cc1ccc(OS(=O)(=O)c2cccc3cnccc23)cc1)C(=O)N1CCN(c2ccccc2)CC1)S(=O)(=O)c1cccc2cnccc12: 88.2%
CCN(CC)CCNC(=O)c1c(C)[nH]c(/C=C2\C(=O)Nc3ccc(Cl)cc32)c1C: 104%
CN(C)C[C@H]1CCn2c(c(C3=C(c4cn(C)c5ccccc45)C(=O)NC3=O)c3ccccc32)C1: 101%
c1ccc(-c2cnc(Nc3ccc(OCCN4CCCC4)cc3)s2)cc1: 92.9%
N#C/C(=C\c1ccc(O)c(O)c1)C(=O)NCc1ccccc1: 98%
Cc1cn(-c2cc(NC(=O)c3ccc(C)c(Nc4nccc(-c5cccnc5)n4)c3)cc(C(F)(F)F)c2)cn1: 117%
Cc1nc2cc3nc(-c4cccs4)cnc3cc2n1C: 96.3%
CCN(CC)C(=O)c1ccc(Nc2nc(OCC3CCCCC3)c3[nH]cnc3n2)cc1: 108%
COc1cc2ncnc(Nc3cccc(Cl)c3)c2cc1OC: 89%
COc1cc2ncnc(Nc3ccc(O)c(Br)c3)c2cc1OC: 89%

Block 3 — effect on: binding; method: NanoBRET; cells: HEK293 (live); direction: lower = stronger binding; quantity: target engagement
Structure (SMILES): CC(C)C(=O)N1CCN(c2nc(OC[C@@H]3CCCN3C)nc3c2CCN(c2cccc4cccc(Cl)c24)C3)C[C@@H]1CC#N
Target: GTPase HRas (HRAS, Homo sapiens, UniProt P01112)
0.09151 µM: 100% and 104% and 96.3%
1.046 µM: 113% and 117% and 123%
0.5686 µM: 98.8% and 104% and 110%
1.523 µM: 147% and 153% and 132%

Block 4 — action: inhibitor; concentration: 1 µM; quantity: inhibition
Structure (SMILES): CC#CC(=O)N1CCC[C@H]1c1nc(-c2ccc(C(=O)Nc3ccccn3)cc2)c2c(N)nccn12
EGFR (Homo sapiens, UniProt P00533, L861Q); enzyme activity: 31%
MAP3K5 (Homo sapiens, UniProt Q99683); enzyme activity: 22%
NEK2 (Homo sapiens, UniProt P51955); enzyme activity: 0%
NEK4 (Homo sapiens, UniProt P51957); enzyme activity: 0%
KIT (Homo sapiens, UniProt P10721); enzyme activity: 26%
MAPK13 (Homo sapiens, UniProt O15264); enzyme activity: 20%
IKBKB (Homo sapiens, UniProt O14920); enzyme activity: 0%
Ribosomal protein S6 kinase alpha-1, kinase domain 2 (RPS6KA1, Homo sapiens, UniProt Q15418): 0%
PIK3CA (Homo sapiens, UniProt P42336, E542K); enzyme activity: 35%
FYN (Homo sapiens, UniProt P06241); enzyme activity: 0%
MAP4K5 (Homo sapiens, UniProt Q9Y4K4); enzyme activity: 7%
RIOK3 (Homo sapiens, UniProt O14730); enzyme activity: 66%
EPHA6 (Homo sapiens, UniProt Q9UF33); enzyme activity: 11%
MAPK9 (Homo sapiens, UniProt P45984); enzyme activity: 0%
STK35 (Homo sapiens, UniProt Q8TDR2); enzyme activity: 1%
FGFR3 (Homo sapiens, UniProt P22607); enzyme activity: 3%

Excerpt of the above (block 1):
MAP2K7 (Homo sapiens, UniProt O14733); binding: 100%
CDK5 (Homo sapiens, UniProt Q00535); binding: 100%
PRKG2 (Homo sapiens, UniProt Q13237); binding: 71%
